Published values of several laboratories.
Every numbered part comes from another study and shows a few of its results, in no order. Substitutions count along the parent as printed.

Block 1
Target: CCND2, cyclin fold, Cln2 fusion (human)
Technique: yeast growth competition, sequencing
Sample: yeast
Setting: strong parent motif
Baseline: not given
Reading: higher = stronger binding
Parent: INSM1 docking peptide (human); PKAIRKLHFEDEV
| Change | normalised enrichment score |
| --- | --- |
| PKAIRKPHFEDEV [L7P] | 0.107 |
| PKAIRPLHFEDEV [K6P] | 0.0929 |
| PKAIRKCHFEDEV [L7C] | 0.481 |
| PKAIRKLWFEDEV [H8W] | 1.19 |
| PKAIRKLHPEDEV [F9P] | 0.289 |

Block 2
Target: Histone acetyltransferase KAT6A, both winged helices, GST fusion (KAT6A, Homo sapiens, UniProt Q92794, residues 1-181)
Technique: protein binding microarray
Molecule type: double-stranded DNA, one strand shown
Sample: in vitro
Tested at: not given
Setting: 8-mer, flanks averaged, mean of 2 arrays, mostly near background
Baseline: not given
Reading: higher = stronger binding
Target sequence (chain): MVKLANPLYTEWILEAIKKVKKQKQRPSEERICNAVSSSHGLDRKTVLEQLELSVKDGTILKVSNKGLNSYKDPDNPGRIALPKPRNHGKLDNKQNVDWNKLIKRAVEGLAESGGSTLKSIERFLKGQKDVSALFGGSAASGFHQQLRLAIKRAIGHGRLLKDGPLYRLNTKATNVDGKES
| Oligonucleotide | E-score |
| --- | --- |
| AAGCCTCA | -0.299 |
| AATAATAC | -0.0699 |
| ACATACCG | 0.171 |
| GGCATCAA | -0.0356 |

Block 3
Target: Sal-like protein 4, full length isoform A (SALL4, Homo sapiens, UniProt Q9UJQ4, residues 1-1053)
Chain of UniProt Q9UJQ4 (whole entry, looked up): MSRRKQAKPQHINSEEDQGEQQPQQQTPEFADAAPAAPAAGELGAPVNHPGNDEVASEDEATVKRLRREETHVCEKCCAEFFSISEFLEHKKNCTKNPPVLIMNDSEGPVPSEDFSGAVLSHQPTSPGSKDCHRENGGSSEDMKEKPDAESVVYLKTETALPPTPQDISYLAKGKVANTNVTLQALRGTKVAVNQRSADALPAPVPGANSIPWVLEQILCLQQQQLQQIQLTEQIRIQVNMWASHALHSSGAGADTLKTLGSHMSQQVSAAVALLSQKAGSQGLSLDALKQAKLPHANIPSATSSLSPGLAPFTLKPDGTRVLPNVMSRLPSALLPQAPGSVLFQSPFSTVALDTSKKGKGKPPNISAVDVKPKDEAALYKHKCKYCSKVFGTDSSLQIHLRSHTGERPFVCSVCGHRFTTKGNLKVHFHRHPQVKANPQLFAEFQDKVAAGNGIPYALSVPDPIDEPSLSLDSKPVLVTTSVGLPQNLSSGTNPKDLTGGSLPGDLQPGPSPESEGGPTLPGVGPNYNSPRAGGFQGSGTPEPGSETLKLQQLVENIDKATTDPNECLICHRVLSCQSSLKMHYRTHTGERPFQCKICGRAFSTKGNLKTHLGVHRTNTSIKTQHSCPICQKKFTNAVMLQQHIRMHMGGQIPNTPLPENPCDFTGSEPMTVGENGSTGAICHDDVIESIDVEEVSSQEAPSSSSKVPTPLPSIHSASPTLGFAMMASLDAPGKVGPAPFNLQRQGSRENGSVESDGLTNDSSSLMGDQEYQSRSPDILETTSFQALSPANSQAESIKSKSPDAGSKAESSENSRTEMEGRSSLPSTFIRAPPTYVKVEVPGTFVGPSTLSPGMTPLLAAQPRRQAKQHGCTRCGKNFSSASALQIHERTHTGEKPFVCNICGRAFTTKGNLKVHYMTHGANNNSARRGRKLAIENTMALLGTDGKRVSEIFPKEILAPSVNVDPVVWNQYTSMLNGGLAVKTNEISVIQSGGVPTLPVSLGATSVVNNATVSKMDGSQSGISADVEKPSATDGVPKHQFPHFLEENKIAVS
Technique: universal PBM
Molecule type: double-stranded DNA, one strand shown
Sample: in vitro
Tested at: 600 nM
Setting: 8-mer, flanks averaged, mean of replicates
Reading: higher = stronger binding
| Oligonucleotide | E-score |
| --- | --- |
| AAGCCCTG | -0.238 |
| CCTGAATC | 0.0889 |
| ATCGACTA | 0.0743 |
| CGAATCAA | 0.182 |
| ACTACCAG | -0.0807 |
| GCGTAGTA | -0.0485 |
| GGACATAC | -0.00628 |

Further values, each from its own experiment
| Molecule | tested on | assay | system | conditions | how to read | measurement | result |
| --- | --- | --- | --- | --- | --- | --- | --- |
| KHDRBS3 (Homo sapiens, UniProt O75525) | KHDRBS1 (Homo sapiens, UniProt Q07666) | cross-linking MS | cell fractions | together with: DSSO |  | cross-linked residues | K33 to K131 |
| PhoQ, residues 284 288 289 292 302 303 SIHLQL | PhoP, residues 12 14 15 18 19 NIMAP (Escherichia coli, UniProt P23836) | Sort-seq, measured: YFP reporter | E. coli | PhoQ-PhoP variant library, together with: 10 µM Mg2+ | baseline: high Mg2+ state, higher = stronger signaling | fold induction | 0.798 |

Repeated from above (block 2):
| Oligonucleotide | E-score |
| --- | --- |
| ACATACCG | 0.171 |
| GGCATCAA | -0.0356 |
